Experimental data collected from several papers.
Protocols differ between the studies behind these lines. ± marks the error that the study gave.

SMILES | assay | test system | conditions | AUC(0-inf) [ng·h/mL]
CC1Cc2ccccc2N1NC(=O)c1ccc(Cl)c(S(N)(=O)=O)c1 (stereo not shown) | – | healthy Chinese volunteers, plasma | oral, 1.25 mg, fasting, together with: perindopril tert-butylamine 4 mg | 289 ± 84.7
O=C(C1CCCCC1)N1CC(=O)N2CCc3ccccc3[C@@H]2C1 | – | healthy men, plasma | oral, 40 mg/kg racemic praziquantel, geometric mean, together with: ritonavir 100 mg/day for 14 days | 1060
COc1ccc2c3c1O[C@H]1C[C@@H](OC(=O)c4ccccc4)C=C[C@@]31CCN(C)C2 | – | healthy elderly men, plasma | intranasal, 33 mg, single dose | 125
CCc1cc2c(cc1N1CCC(N3CCOCC3)CC1)C(C)(C)c1[nH]c3cc(C#N)ccc3c1C2=O | – | healthy subjects, matched to severe impairment, plasma, total | oral, 300 mg single, fed | 1990
O=C(NC[C@H](O)CO)c1ccncc1Nc1ccc(I)cc1F | – | patients, plasma | oral, 45 mg single dose, day 1, median, together with: FOLFIRI | 1160
Cc1nc2cccc(N)c2c(=O)n1C1CCC(=O)NC1=O (stereo not shown) | – | healthy adults, plasma | oral, 3 mg, geometric mean, together with: fluvoxamine 50 mg twice daily | 1100
COc1cc(OC)c(/C=C/S(=O)(=O)Cc2ccc(OC)c(NCC(=O)O)c2)c(OC)c1 | – | cancer patients, phase I, plasma | oral, 280 mg twice daily, day 1 cycle 1 | 4930 ± 4060
CN1C(=O)[C@@H](NC(=O)c2nnc(Cc3ccccc3)[nH]2)COc2ccccc21 | – | healthy men, plasma | oral, 60 mg once daily, day 14, geometric mean | 2600
CCC[C@H](N[C@@H](C)C(=O)N1[C@H](C(=O)O)C[C@@H]2CCCC[C@@H]21)C(=O)O | – | healthy Chinese volunteers, plasma | oral, 4 mg perindopril tert-butylamine, fasting, together with: indapamide 1.25 mg | 125 ± 34.8
Oc1ccc2c3c(cnc2c1)-c1ccc(C(F)(F)F)cc1O[C@@H]3c1ccc(OCCN2CC(CF)C2)cc1 | – | healthy fasted women, plasma | oral solution, 400 mg, [14C]-labelled compound | 3310
CC(C)=CCC[C@](C)(O[C@@H]1O[C@H](CO)[C@@H](O)[C@H](O)[C@H]1O)[C@H]1CC[C@]2(C)[C@@H]1[C@H](O)C[C@@H]1[C@@]3(C)CC[C@H](O[C@@H]4O[C@H](CO)[C@@H](O)[C@H](O)[C@H]4O)C(C)(C)[C@@H]3CC[C@]12C | LC-MS/MS | healthy volunteers, serum | oral, 3 g red ginseng | 4.54 ± 3.7
Cc1nc(-c2ccc(OCC(C)C)c(C#N)c2)sc1C(=O)O | – | healthy Chinese adult volunteers, plasma | oral, 80 mg single dose, fasting | 15500 ± 3230
O=C1c2cccc3c2[C@H](CCC3)CN1[C@@H]1CN2CCC1CC2 | – | healthy volunteers, plasma | oral, 0.50 mg single dose, mean, together with: netupitant 300 mg fixed combination | 50.2
CC(C)=CCC[C@](C)(O[C@@H]1O[C@H](CO)[C@@H](O)[C@H](O)[C@H]1O)[C@H]1CC[C@]2(C)[C@@H]1[C@H](O)C[C@@H]1[C@@]3(C)CC[C@H](O[C@@H]4O[C@H](CO)[C@@H](O)[C@H](O)[C@H]4O[C@@H]4O[C@H](CO)[C@@H](O)[C@H](O)[C@H]4O)C(C)(C)[C@@H]3CC[C@]12C | LC-MS/MS | healthy female volunteers, serum | oral, 3 g red ginseng | 12.3 ± 14.6
NC(=O)c1cnc2[nH]ccc2c1N[C@@H]1[C@@H]2CC3C[C@H]1C[C@@](O)(C3)C2 | – | healthy Caucasian men, plasma | oral, 20 mg, single dose fasted | 196
CC(C)(Sc1ccncc1-c1ccc(C#N)c2ccccc12)C(=O)O | – | male, plasma | oral, 15 mg, mild renal impairment, fasted | 201
Nc1cccc2c1C(=O)N(C1CCC(=O)NC1=O)C2=O (stereo not shown) | – | healthy male nonsmokers, plasma | oral, 4 mg, geometric mean, ANOVA | 684
O=C(c1cccnc1-c1ccncc1)N1CCC(O)(Cc2ccccc2)CC1 | – | healthy subjects, plasma | oral, 300 mg twice daily, day 1 | 1510
CNC(=O)c1ccc(-c2cnc3ncc(Cc4ccc5ncccc5c4)n3n2)cc1F | – | normal hepatic function | oral, 200 mg, mean | 6970
Cc1ccc([C@@H]2O[C@H](CO)[C@@H](O)[C@H](O)[C@H]2O)cc1Cc1ccc(-c2ccc(F)cc2)s1 | – | Japanese type 2 diabetes patients, plasma | oral, 200 mg single, normal or mild renal impairment | 14800
CCOc1ccc(Cc2cc([C@@H]3S[C@H](CO)[C@@H](O)[C@H](O)[C@H]3O)c(OC)cc2C)cc1 | – | Japanese type 2 diabetes patients, plasma | oral, 5 mg single dose, eGFR below 30 mL/min/1.73 m^2 | 2420 ± 657
COc1ccc2[nH]c([S+]([O-])Cc3ncc(C)c(OC)c3C)nc2c1 (stereo not shown) | – | healthy Chinese, CYP2C19 rapid metabolizers, plasma | oral, 20 mg single dose | 366 ± 233
C[C@H]1Oc2cc(cnc2N)-c2c(nn(C)c2C#N)CN(C)C(=O)c2ccc(F)cc21 | – | healthy adults | oral tablet, 100 mg single dose, fasted, adjusted geometric mean | 8470
COc1cccc(N2CCN(C3=Nc4c(F)cccc4[C@H](CC(=O)O)N3c3cc(C(F)(F)F)ccc3OC)CC2)c1 | UHPLC-MS/MS | healthy women, plasma | intravenous infusion, 480 mg single dose, 60 min infusion, HPβCD formulation | 106000 ± 21600
CC(C)(Sc1ccncc1-c1ccc(C#N)c2ccccc12)C(=O)O | – | healthy Japanese male subjects, plasma | oral, 10 mg single dose, day 6, fed, geometric mean | 215

Repeated from above:
SMILES | assay | test system | conditions | AUC(0-inf) [ng·h/mL]
COc1cccc(N2CCN(C3=Nc4c(F)cccc4[C@H](CC(=O)O)N3c3cc(C(F)(F)F)ccc3OC)CC2)c1 | UHPLC-MS/MS | healthy women, plasma | intravenous infusion, 480 mg single dose, 60 min infusion, HPβCD formulation | 106000 ± 21600
C[C@H]1Oc2cc(cnc2N)-c2c(nn(C)c2C#N)CN(C)C(=O)c2ccc(F)cc21 | – | healthy adults | oral tablet, 100 mg single dose, fasted, adjusted geometric mean | 8470
O=C1c2cccc3c2[C@H](CCC3)CN1[C@@H]1CN2CCC1CC2 | – | healthy volunteers, plasma | oral, 0.50 mg single dose, mean, together with: netupitant 300 mg fixed combination | 50.2
CCC[C@H](N[C@@H](C)C(=O)N1[C@H](C(=O)O)C[C@@H]2CCCC[C@@H]21)C(=O)O | – | healthy Chinese volunteers, plasma | oral, 4 mg perindopril tert-butylamine, fasting, together with: indapamide 1.25 mg | 125 ± 34.8
